Results from different studies.
A part holds a random share of what one study measured.

Study 1
Target: RNA binding protein fox-1 homolog 2, RRM domain, GST-SBP tag (RBFOX2, Homo sapiens, UniProt O43251-10, residues 100-194)
Technique: RNA Bind-n-Seq
Form: RNA
Matrix: in vitro
Tested at: 365 nM
Notes: natural RNA segment, single round, ends assumed
Relative to: no-protein control
Reading: higher = stronger binding
Endpoint: RBNS enrichment (R)
Constant ends, left off below: GGGAGUUCUACAGUCCGACGAUC … UGGAAUUCUCGGGUGCCAA
Residues (chain): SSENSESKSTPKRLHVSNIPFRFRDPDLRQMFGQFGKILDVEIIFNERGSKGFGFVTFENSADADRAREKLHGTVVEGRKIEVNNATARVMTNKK
UACUAUAUCAUCUGAGGUUUUAAGUGGUAACUGGUUCUAUACCAUGUAUGUAUCAUAUGUUUGUUCAUCAAAGCUUUUUAAUCCAAAUAAAAACAACAGUUUGCAAAGUG: 0.528
CCAUUGUAAAUACUGCCUCGCCCCUCCUUUGAACUCCAGGGCAUCAGACCUCAAGGGGUAAACUGGACCCACCGGGGAAAGAAAGGGAAGAGGGGAGACCUCUUCUACGA: 0.26
CGCCGCCUCGCCCACCGCAUGCCCCCUCGUGCCAGUCGCGCUGCCUGUGUGGUGUCGCGCCUUCUCCCCCCCGGGGCUGGGUUGGCGCACCCUCCCCUCCCGUCUACUCA: 2.56
AUCCCUUACUCUUCGGGUCAGCUGUUGAGAAGAGGCGGGUUUUCUUCAUUGGCCUAGAUUUUGCGGCAGAUUAGACCUUUUGAAGGUUCUCCACCAUUUUCGUACGUCUC: 0.485
AAAAUGAUUAUAACCAGUUGCACCCUGUAUUUCUUUUUGCAGCCAGCACAAUGUGACCCAACUUAAAAUUUGGGGGAAAAAGAAUGCAGGAGUGAAAUAACCAAGUCAAA: 0.568
UUGAAAGGAAAGAUUGGGUUGCAUAGUCAUAGUACAUGAAUCCAAUCAAAGAUGAUACAAUAUUUCCCUCACUUCUGUUUUGCUGGCCUUAACUGGUAUCAAACAGUGUC: 0.393
UCUGGCCUUGUAUUUCACACCCUGCUCAGUAUGGCUAGCCAGCAGUCCUGAGUAGGAGUCCAGGACUCCCACUGUCUCAAUCUGCAAAUUGUUCCUAUCCAGGUUCAGGG: 0.403
AACUCAUUUGCUCACUCCUUGACAGCAAAGCCCAGUACGUACAAUUGUGUUGGGUGUGGGUGGUCUCCAAGGCCACGCUGCUCUCUGAAUUGAUUUUUUGAGUUUUGUUU: 0.26

Study 2
Target: Eukaryotic initiation factor 4A-I (EIF4A1, Homo sapiens, UniProt P60842, residues 1-406, full length assumed)
Sequence of UniProt P60842 (whole entry, looked up): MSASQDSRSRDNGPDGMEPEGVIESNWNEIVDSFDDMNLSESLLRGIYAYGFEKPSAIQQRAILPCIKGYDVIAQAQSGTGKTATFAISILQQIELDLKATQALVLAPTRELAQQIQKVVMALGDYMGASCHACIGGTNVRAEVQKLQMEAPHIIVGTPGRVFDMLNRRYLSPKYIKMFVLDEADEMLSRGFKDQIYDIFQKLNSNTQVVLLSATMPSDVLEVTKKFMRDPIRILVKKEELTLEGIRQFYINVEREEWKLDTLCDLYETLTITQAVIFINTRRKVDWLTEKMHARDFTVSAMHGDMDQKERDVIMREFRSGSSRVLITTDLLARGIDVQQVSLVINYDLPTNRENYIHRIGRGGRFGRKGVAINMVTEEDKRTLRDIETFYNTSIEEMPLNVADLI
Technique: RNA Bind-n-Seq
Form: RNA
Matrix: in vitro
Tested at: 15 pmol
Notes: 4-mer, random 30-nt RNA, single round
Added: DMSO vehicle, 2 mM AMP-PNP
Relative to: input library
Reading: higher = stronger binding
Endpoint: 4-mer enrichment
CAUC: 1.44 fold
AACG: 1.3 fold
GGAC: 1.08 fold
UGCA: 0.852 fold
AUAA: 1.36 fold
CACG: 1.14 fold
CCUA: 0.894 fold
GGCC: 1.51 fold
UGCG: 1.03 fold
GUAC: 0.615 fold
AAUC: 0.911 fold
AAAC: 1.81 fold
GGCA: 1.01 fold
GUAG: 0.649 fold
UCAG: 1.43 fold
AGGA: 1.38 fold

Study 3
Target: Interferon regulatory factor 7, full length, phosphomimetic (IRF7, Homo sapiens, UniProt Q92985, residues 1-503, S101K/S471D/S472D/S475D/S476D/S477D/S483D/S484D/S487D)
Sequence of UniProt Q92985 (whole entry, unmodified, looked up): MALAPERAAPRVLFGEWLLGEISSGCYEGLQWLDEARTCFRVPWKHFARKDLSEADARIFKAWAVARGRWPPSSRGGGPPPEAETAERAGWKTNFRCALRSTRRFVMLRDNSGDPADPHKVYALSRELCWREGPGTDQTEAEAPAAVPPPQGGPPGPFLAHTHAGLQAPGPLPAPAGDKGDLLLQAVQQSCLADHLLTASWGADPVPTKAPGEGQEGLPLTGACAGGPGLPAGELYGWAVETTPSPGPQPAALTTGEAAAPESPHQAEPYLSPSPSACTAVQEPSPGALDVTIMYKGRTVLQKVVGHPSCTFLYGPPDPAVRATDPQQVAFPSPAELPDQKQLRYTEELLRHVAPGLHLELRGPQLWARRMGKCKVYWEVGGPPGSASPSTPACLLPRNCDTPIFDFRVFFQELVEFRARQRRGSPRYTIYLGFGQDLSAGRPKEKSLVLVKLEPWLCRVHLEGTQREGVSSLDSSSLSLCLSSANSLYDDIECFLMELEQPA
Technique: protein-binding microarray
Form: double-stranded DNA, one strand shown
Matrix: in vitro
Tested at: 250 nM
Notes: 60-bp whole probe
Added: salmon DNA 0.4 mg/ml
Relative to: random background probes
Reading: higher = stronger binding
Endpoint: log fluorescence
Constant ends, left off below: GCCTAGCAC … GTCTTGATTCGCTTGACGCTGCTG
GACGAACTGCTACTGCTGACGTGCTAG: -0.618 z-score
TTAGGTCTCCTCTTCCTTTAGTGCTAG: 0.335 z-score
TCATCAACCAGTTTTCTTACTGTGCTA: -0.0346 z-score
GACGGTCACCTACTGCTGACGTGCTAG: -0.635 z-score
TTAGGTATCCATCTCCTTTAGTGCTAG: 0.0746 z-score
GAGGATATCAGTATCGAGACGTGCTAG: -0.0368 z-score
TCAACTCTGAACCTTCAGACTGTGCTA: -0.439 z-score
GACGATCTCAGTTTCGGGACGTGCTAG: 2.82 z-score
GAGGAGGGGCTGTTACTCTCGTGCTAG: -0.541 z-score
GACGATTACAGACTGGAGACGTGCTAG: -0.249 z-score
CTTGGCAAGATGAGGAAGATGTGCTAG: -0.753 z-score
CACGATTTCAGTTCCGAGACGTGCTAG: 0.859 z-score
GGCGGTATCGGACTGGGGACGTGCTAG: -0.442 z-score
GACGATATCGGGTTTCGATACGTGCTA: 5.15 z-score
TCAGTTTTACTTTCTATACTGTGCTAG: 2.03 z-score
GTAGATCTCAGTATCGATTAGTGCTAG: 0.545 z-score
GAGGTTTTCTAATGTTTTTTAGTGCTA: 0.401 z-score
TTAGGATCCCTTTTCCTTTAGTGCTAG: 2.01 z-score
TCAGTTCTCCCTTTCAGTTTGTGCTAG: 1.8 z-score

Study 4
Target: Prothrombin, mature alpha-thrombin (F2, Homo sapiens, UniProt P00734)
Technique: aptamer microarray, sandwich
Form: DNA with 2'F-ANA
Matrix: in vitro
Tested at: 200 nM
Notes: whole 15-mer aptamer, many near background
Added: Cy3 exosite-II aptamer, 400 nM
Reading: higher = stronger binding
Endpoint: mean fluorescence intensity
Oligonucleotide: GGTTGGTGTGGTTGG
2'F-ANA at 2 3 5 6 9 10 14 15: 48.9 a.u.
2'F-ANA at 1 4 5 6 7 8 13 14 15: 51.7 a.u.
2'F-ANA at 1 2 3 5 15: 60 a.u.
2'F-ANA at 1 2 3 4 6 8 10 11 13: 61.7 a.u.
2'F-ANA at 1 2 7 8 9 10 11 14 15: 57 a.u.
2'F-ANA at 1 2 3 4 6 8 9 11 12 13 14: 64.1 a.u.
2'F-ANA at 2 3 6 7 10 11 14 15: 221 a.u.
2'F-ANA at 1 2 3 5 7 10 11 12: 63.2 a.u.
2'F-ANA at 1 2 3 4 6 7 9 10 11 13 14 15: 51.9 a.u.
2'F-ANA at 4 6 9 10 11 13 14 15: 58.8 a.u.
2'F-ANA at 3 5 7 9 10 12 14: 76.3 a.u.
2'F-ANA at 3 5 6: 217 a.u.
2'F-ANA at 1 2 3 4 5 7 8 10 12: 50.4 a.u.
2'F-ANA at 1 4 5 6 7 8 14 15: 54.9 a.u.
2'F-ANA at 2 3 5 6 7 11 15: 71.6 a.u.
2'F-ANA at 2 3 5 6 7 9 10 11 12 13 15: 55.7 a.u.
2'F-ANA at 1 4 5 8 10 11 12 14: 53.5 a.u.
2'F-ANA at 1 4 5 6 8 9 11 12 13 15: 64.3 a.u.
2'F-ANA at 2 4 5 8 9 11 13 14: 46.9 a.u.
2'F-ANA at 3 4 6 7 8 9 10 11 12 15: 266 a.u.
2'F-ANA at 1 2 4 6 7 12 13: 152 a.u.
2'F-ANA at 1 3 9 13 14: 73.6 a.u.
2'F-ANA at 2 3 4 5 6 7 9 11 14 15: 54.5 a.u.
2'F-ANA at 1 3 4 7 10 11 12 13 14: 49.5 a.u.

Study 5
Target: Sal-like protein 4, full length isoform A (SALL4, Homo sapiens, UniProt Q9UJQ4, residues 1-1053)
Sequence of UniProt Q9UJQ4 (whole entry, looked up): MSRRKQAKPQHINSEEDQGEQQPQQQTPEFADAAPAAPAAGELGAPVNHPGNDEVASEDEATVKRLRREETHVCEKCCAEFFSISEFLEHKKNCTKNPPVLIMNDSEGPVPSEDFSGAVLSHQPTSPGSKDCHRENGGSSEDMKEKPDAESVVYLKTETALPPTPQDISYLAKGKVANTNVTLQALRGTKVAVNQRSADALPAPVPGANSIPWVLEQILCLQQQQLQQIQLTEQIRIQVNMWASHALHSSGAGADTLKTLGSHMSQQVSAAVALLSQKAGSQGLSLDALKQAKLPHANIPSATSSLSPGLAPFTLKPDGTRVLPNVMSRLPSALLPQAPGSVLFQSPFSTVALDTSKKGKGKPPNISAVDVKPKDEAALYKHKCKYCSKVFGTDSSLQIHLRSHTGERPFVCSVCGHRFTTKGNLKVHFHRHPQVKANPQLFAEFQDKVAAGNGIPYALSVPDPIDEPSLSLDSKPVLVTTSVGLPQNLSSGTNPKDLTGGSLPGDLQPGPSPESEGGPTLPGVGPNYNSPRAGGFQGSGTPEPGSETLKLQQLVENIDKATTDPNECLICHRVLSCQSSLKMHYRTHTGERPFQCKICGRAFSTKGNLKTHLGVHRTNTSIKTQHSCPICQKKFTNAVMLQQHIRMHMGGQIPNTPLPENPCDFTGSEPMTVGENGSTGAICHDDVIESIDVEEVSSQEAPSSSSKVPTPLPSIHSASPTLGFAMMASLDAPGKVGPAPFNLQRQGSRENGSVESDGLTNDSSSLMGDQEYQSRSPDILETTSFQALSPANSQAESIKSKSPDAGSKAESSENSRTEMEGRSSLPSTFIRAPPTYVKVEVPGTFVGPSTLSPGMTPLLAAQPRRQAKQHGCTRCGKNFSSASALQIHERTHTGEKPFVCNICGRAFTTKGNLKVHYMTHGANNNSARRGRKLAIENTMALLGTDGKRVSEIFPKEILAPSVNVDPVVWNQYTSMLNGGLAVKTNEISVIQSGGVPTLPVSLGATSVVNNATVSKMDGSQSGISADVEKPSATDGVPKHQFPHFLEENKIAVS
Technique: universal PBM
Form: double-stranded DNA, one strand shown
Matrix: in vitro
Tested at: 600 nM
Notes: 8-mer, flanks averaged, mean of replicates
Reading: higher = stronger binding
Endpoint: E-score
ACGGGCTG: -0.305
GACACCTA: 0.00101
ATAATGTC: 0.209
ACATCCCT: -0.0986
AACACGTT: 0.0886
GGCTGCAA: 0.0111
AGATTGCT: 0.0795
GGTGTGTA: -0.00801
AAAGGTCG: 0.0272
AGGGCCGC: -0.43
AACTAGGA: 0.0383
CTAATGAG: 0.0629
CTAATCAG: 0.0641
ACCATTCA: 0.0529
AGCTGCTG: -0.205
AGTATGCA: 0.0864
GGCGAACA: -0.147
AGCTAACG: -0.137
AACCCGCG: -0.323
TCAGTCGA: -0.012
AAGGCTCC: -0.293
GGGTTGGA: -0.166
ATCAGTCA: 0.129
AACTCGGT: -0.029
GGAAAGCA: 0.00276
